# Experimental data gathered from unrelated publications.
# A part holds a random share of what one study measured.

# Series 1
# Target: Histone acetyltransferase KAT6A, winged helix 1, GST fusion (KAT6A, Homo sapiens, UniProt Q92794, residues 1-85)
# Technique: protein binding microarray
# Form: double-stranded DNA, one strand shown
# Sample: in vitro
# Concentration: not given
# Notes: 8-mer, flanks averaged, mean of 2 arrays, mostly near background
# Relative to: not given
# Reading: higher = stronger binding
# Residues (chain): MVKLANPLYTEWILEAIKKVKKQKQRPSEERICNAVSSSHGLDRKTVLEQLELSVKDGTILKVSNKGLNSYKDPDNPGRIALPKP
Strand,E-score
CTTTTGAC,-0.116
GACTTGAC,-0.212
GGCAACAC,-0.0402
GCGGAGAA,0.136
TTACACAA,0.0251
CGTCCGAG,0.205
CAATGCTC,-0.179
ACCGGCGG,0.471
CAAGTGTC,-0.116
ATTCCTAC,-0.0866
GGTTACCA,-0.0118
AGCAGGCC,0.0379
GAGTTCTA,-0.182
CGTATGTA,0.0272
ACGACAGG,-0.0926
AGGGGCTG,-0.275
ACCCTCTC,-0.19
GCTCCGAC,0.0763
AAAAGTCG,-0.0981
CATCCAGG,-0.222
AACACTGC,0.0755
ACACGCTA,0.205
GGGCGGTA,0.33
TAGAAAGA,-0.119
GAGATATC,-0.108

# Series 2
# Target: RNA binding protein fox-1 homolog 2, RRM domain, GST-SBP tag (RBFOX2, Homo sapiens, UniProt O43251-10, residues 100-194)
# Technique: RNA Bind-n-Seq
# Form: RNA
# Sample: in vitro
# Concentration: 365 nM
# Notes: natural RNA segment, single round, ends assumed
# Relative to: no-protein control
# Reading: higher = stronger binding
# All sequences stand within: GGGAGUUCUACAGUCCGACGAUC … UGGAAUUCUCGGGUGCCAA
# Residues (chain): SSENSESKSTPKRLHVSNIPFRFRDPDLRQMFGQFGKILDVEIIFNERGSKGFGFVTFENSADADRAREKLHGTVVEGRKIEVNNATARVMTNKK
Strand,RBNS enrichment (R)
GUGAAGCCCUAGACGAUGGAAUCCUACCAAGCUGAACGUCGGCUUCUAUCCAUAUGCUAUCGAGUAAUUAUAGAAGCAAUUAACACUCACUGUUCUUGCCUCUGGUGAGA,0.446
AUAAACAAAAGUAAAUACUAUAAUACAAACUUCCUUCUGAAAUAAAAGUAGAUCUGGUAAAAAUGUGGCUUUUGUUCUGAGUGUUUCAUUUUGAUUUUGCAUUGUUUUGC,1.05
CACACACACACACACCCCUGCUCAACAGAGGUUUAGUUUACAGUCUCUGAACUAAAGUAGUAACCUCCCAAAUUGUUUUUUCUAAUAAGCUGAGAUUCCCAUUUCUCUUA,0.602
CUUGACAAAGUCCCAAGUGCUCAGGACUUUUAGCCCUGUCUACUUUGGCUUGGUUUGGAUGAUUCUUAAGUUUAUUAGCCUAGUGAUGGCCAAAAAGUACUUGACUUAAG,0.262
GCUGGGCUGGGCUUUGCCUUUCAGCAUUCUGUCUGUCUCACUGGUCAUGCAUUGUUCCAUAGUCGCCCUCAUGGGGUCAUUUCAUGCCUCCAGGCGGGGCCCGGAAGUAG,0.379
CUGUUCUCCUCCCCAAGUCGGCACCCUUUAACUCAUGAGGAGGGAAAAGAGUGCCUAAGCGGGGGUGAAAGAGGACGUGUUACCCACUGCCAUGCACCAGGACUGGCUGU,0.37
AAAUGAUGACCCACUCUGGGUAUAAGCUUGAUUUCCUUUGUUGAGACUUACCCUUCAUUGAAGAGAAAAAGAAGACAGUCAAAAAAGGUCCAGGUUACAAAGUUCUCCUC,0.296
GAGUAACUGAAGCACAUUGGAAAGAUUCUCAAUUUUGUGUUUCCUGUAAAAACAGUGCUCUCUGCUGCUAGGACCUUUUUUCUGCUUCCUGUCAUUUUCAUGUGGCUUGA,0.376
CUGUGAGUUGGGAAUUCCUGCGUGGCGACUUUCUCUGAGGCCCACAGAGAAUCAGGUAACAUUGCACAGCCUGCGUUCUCCUGCAGUGGUGGCACGCCUUGUGCUGACGA,0.477
AGCUGGGGGUUGGGGGGACUGACCCUCCCCAGGGAGGUCUUACAAGUAGUGUGACCAGUCUUUUGUUUGUUUGUUUGGUUGGUUGUUUUUUGGAGACAGGGUUUCUCUGU,12.8
UGUAUCUUACAGCAUUGUACCCCAUUGUUAAAGAGCCGUGUCCCCUCUUCUUAUAAACGCCCUUCUAAUAAACUUUUCACCGUAAAGCUCCUGAGACAGGAGCACAGUCU,0.643
UUUCUGGGAUUAUACAAAUUCCUUUUUAUAUAAAAGUAUAUUGUUUAAAACAGUAGCUAUAGCCAUUAACCAAAGGACAGAUGAUAUAUAUAUAUAUGAUAUAUAUAUAU,0.603

# Series 3
# Target: Centromere-binding protein 1, full length, N-terminal tag (CBF1, Saccharomyces cerevisiae, UniProt P17106, residues 1-351)
# Chain of UniProt P17106 (whole entry, looked up): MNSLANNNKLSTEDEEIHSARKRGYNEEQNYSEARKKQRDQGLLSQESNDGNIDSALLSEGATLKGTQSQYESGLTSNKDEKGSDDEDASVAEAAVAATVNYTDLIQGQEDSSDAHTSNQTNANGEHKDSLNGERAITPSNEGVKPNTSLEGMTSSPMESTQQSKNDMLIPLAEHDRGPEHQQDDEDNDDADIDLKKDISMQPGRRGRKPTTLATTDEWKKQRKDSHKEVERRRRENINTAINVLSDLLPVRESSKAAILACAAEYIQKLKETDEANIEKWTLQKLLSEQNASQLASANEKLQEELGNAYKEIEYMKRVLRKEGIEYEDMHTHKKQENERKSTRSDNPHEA
# Technique: protein-binding microarray
# Form: double-stranded DNA, one strand shown
# Sample: in vitro
# Concentration: 0.8 µM
# Notes: whole 60-bp probe, no competitor
# Reading: higher = stronger binding
# All sequences stand within: … GTCTTGATTCGCTTGACGCTGCTG
Strand,fluorescence intensity
GAATGCATTACTACTCACGCATCCTATCACATATAG,582 a.u.
TGTACGAAGCTATGTTGTGTGAATATAGTAGTTAGG,551 a.u.
CCTAACTACTATAGCCACGAAAAATAGCTTCGTACA,523 a.u.
TGTACGAAGCTATATCACACTATTATAGTAGTTAGG,521 a.u.
GAAGACATCCTCAGTCACGGAAGTAATTAAAGGTAG,645 a.u.
GAAATTACCATACGTGATCTTATTAAACTCTAGTAG,802 a.u.
GAAGTCTGCTCTCTTCGTGTCATTCCTTATAGCTAG,501 a.u.
CCTAACTACTATAACCACGTACTATAGCTTCGTACA,538 a.u.
GAAGAGAAACTGAACGGGGTGACGCACTGCAAATAG,515 a.u.
CCTAACTACTATAATCACGGGGCATAGCTTCGTACA,1230 a.u.
CTAGGGCGAAGAGGTCACGACCTATTTTTTCTTTTC,1020 a.u.
CTAGAAATTTAACCTCACGAGTTCATGATCATATTC,710 a.u.
TGTACGAAGCTATTGAACGTGTCTATAGTAGTTAGG,543 a.u.
CTAATCAATTCATTTAACGTGTCTGGACGGACTTTC,540 a.u.
CTAGCTTCATGAGGGCATGTGATTTCATTGCATTTC,2100 a.u.
CTACGCGGAGTCGCTGATGACGCAATAGGCACATTC,498 a.u.
CTAAGGAGAAATGATGGTGATATTAATATGCAGTTC,511 a.u.
TGTACGAAGCTATATGCACGTGCTATAGTAGTTAGG,10800 a.u.
GAAGTAGTTCAAATTGCGGTCACGTATATGCCATAG,1200 a.u.
CTAAATTGTTTCAACCTCATGACCCCTGTCTTGTTC,676 a.u.
CTAGCTCTGTTTAGTCACATGATTCTTTCCCAATTC,6380 a.u.
CTACACACTTTAGGAGCCGTGATAAAGAAGACTTTC,550 a.u.
CTACTGGTATAGTATCATATGAGATCTAGGAAGTTC,571 a.u.
GAAGCGTATAGTAGGCACGTGGTAGTCCACCCGTAG,5170 a.u.
CTACTGTTATTTGATCTGGTGATGAGTTCTGCCTTC,670 a.u.

# Series 4
# Target: Sal-like protein 4, full length isoform A (SALL4, Homo sapiens, UniProt Q9UJQ4, residues 1-1053)
# Chain of UniProt Q9UJQ4 (whole entry, looked up): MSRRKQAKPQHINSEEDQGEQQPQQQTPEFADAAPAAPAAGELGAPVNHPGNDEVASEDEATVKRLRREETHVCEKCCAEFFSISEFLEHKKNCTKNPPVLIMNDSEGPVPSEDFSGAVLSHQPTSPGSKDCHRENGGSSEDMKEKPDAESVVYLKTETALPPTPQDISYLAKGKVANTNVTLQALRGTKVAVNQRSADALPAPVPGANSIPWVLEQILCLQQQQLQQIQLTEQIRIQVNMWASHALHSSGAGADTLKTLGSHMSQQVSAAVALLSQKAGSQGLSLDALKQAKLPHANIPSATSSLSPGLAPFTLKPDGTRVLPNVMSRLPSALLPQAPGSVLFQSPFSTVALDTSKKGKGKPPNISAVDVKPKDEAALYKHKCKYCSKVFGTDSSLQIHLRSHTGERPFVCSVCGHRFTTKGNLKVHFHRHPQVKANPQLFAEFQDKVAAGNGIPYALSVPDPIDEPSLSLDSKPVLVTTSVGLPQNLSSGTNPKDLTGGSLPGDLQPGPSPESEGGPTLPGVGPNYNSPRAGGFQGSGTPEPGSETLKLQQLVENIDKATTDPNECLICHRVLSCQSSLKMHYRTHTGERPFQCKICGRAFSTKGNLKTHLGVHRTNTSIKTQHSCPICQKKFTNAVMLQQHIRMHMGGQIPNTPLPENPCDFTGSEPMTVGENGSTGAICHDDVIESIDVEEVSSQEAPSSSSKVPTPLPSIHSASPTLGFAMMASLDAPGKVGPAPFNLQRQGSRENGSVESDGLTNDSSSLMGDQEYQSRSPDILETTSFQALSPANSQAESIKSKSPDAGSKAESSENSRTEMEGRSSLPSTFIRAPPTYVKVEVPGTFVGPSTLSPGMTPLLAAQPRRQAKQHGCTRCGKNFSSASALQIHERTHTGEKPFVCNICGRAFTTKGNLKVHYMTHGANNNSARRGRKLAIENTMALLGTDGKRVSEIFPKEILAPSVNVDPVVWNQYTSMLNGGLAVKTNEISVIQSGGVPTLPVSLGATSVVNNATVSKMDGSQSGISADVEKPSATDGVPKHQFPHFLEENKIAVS
# Technique: universal PBM
# Form: double-stranded DNA, one strand shown
# Sample: in vitro
# Concentration: 600 nM
# Notes: 8-mer, flanks averaged, mean of replicates
# Reading: higher = stronger binding
Strand,E-score
AGTCCATG,-0.103
GGTTATTA,0.385
CGGAAACC,-0.363
CCCCAATC,-0.187
GGAATCGA,-0.172
CGCACTTA,0.023
GACATCTC,-0.0761
GCGCAATA,0.136
TTGCAAAA,0.266
CTACAGGA,0.00636
AGCCGTCA,-0.128
AACACGGG,-0.183
AGATAATC,0.149
CAACATGC,0.0685
GCTGGAGA,-0.232
CCGTCAGG,-0.253
AGGTTTGC,-0.0503
ACGGCTTA,-0.0413
GGAACGAA,0.0768
AGTCTTCG,-0.0453
CTATTAAC,0.234
ATTCCTTC,0.157
CTGGGTGC,-0.347
ACTAACTA,0.0672
ACACCGTA,-0.0954

# Series 5
# Target: Interferon regulatory factor 7, full length, phosphomimetic (IRF7, Homo sapiens, UniProt Q92985, residues 1-503, S101K/S471D/S472D/S475D/S476D/S477D/S483D/S484D/S487D)
# Chain of UniProt Q92985 (whole entry, unmodified, looked up): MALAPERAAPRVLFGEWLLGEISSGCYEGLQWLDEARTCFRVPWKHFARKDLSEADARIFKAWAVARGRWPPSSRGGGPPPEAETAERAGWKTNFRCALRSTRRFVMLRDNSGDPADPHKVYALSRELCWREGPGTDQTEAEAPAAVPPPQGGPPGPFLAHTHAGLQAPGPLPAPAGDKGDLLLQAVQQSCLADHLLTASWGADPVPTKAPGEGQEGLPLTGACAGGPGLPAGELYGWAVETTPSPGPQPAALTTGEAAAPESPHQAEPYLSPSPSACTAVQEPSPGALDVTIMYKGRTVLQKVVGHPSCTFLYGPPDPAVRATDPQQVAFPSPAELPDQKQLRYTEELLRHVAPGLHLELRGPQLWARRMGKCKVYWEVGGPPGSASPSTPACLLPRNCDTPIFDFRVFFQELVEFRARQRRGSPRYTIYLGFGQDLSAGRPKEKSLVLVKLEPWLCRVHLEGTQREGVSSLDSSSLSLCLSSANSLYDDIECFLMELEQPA
# Technique: protein-binding microarray
# Form: double-stranded DNA, one strand shown
# Sample: in vitro
# Concentration: 250 nM
# Notes: 60-bp whole probe
# With: salmon DNA 0.4 mg/ml
# Relative to: random background probes
# Reading: higher = stronger binding
# All sequences stand within: GCCTAGCAC … GTCTTGATTCGCTTGACGCTGCTG
Strand,log fluorescence [z-score]
TTATATTTCAGACTGGATTAGTGCTAG,0.665
GACGATTTCAGTATCGTGACGTGCTAG,0.143
GACGATCTGGGGACTGGAGACGTGCTA,-0.741
AAGTTTCTCCTTTCCAAATAGTGCTAG,5.4
CTCTGTCCCCCTTTTATATTGTGCTAG,0.406
GTAAGTTTCACTTTCCAAAGGTGCTAG,9.99
TCAGGTATCGGTTTCGGTTAGTGCTAG,10.8
AGTCCGTGGATTGACCAGATGTGCTAG,-0.384
GACGCTTTCAGTATCGAGACGTGCTAG,0.888
TCATAACTTATTCTCTAACTGTGCTAG,0.505
TCTCCTCTAGGTTCTCTGAGAGTGCTA,0.372
GACGATCTCCGTTTCGAGACGTGCTAG,1.13
TCACCTTCTACTCTCCTACTGTGCTAG,0.823
GACGATATCAGTATCGAGAAGTGCTAG,-0.41
TCAACCTTGAACTTCGGACTGTGCTAG,-0.21
TCAAGTTTCTCCTTTCCACTGTGCTAG,2.51
GACGGACTGGGGATTCGGGACGTGCTA,-0.53
TTAGGTTTCCTTTTCCTTTAGTGCTAG,6.53
GTGTTTTTCTCCTATTTAAGAGTGCTA,2.05
TTAGAGATCAGTTTCGATTAGTGCTAG,8.16
TTAGGGTTCGGTTCCGGTTAGTGCTAG,4.13
CCCTAATTCTGATTGGATAAGTGCTAG,0.596
TTAGGTCTCCTTCTCCTTGAGTGCTAG,0.43
TCATTTTTTTATTTATAACTGTGCTAG,1.06
GACGAACTGAGTTTAGAGACGTGCTAG,-0.128

# A few entries again (series 2):
Strand,RBNS enrichment (R)
AUAAACAAAAGUAAAUACUAUAAUACAAACUUCCUUCUGAAAUAAAAGUAGAUCUGGUAAAAAUGUGGCUUUUGUUCUGAGUGUUUCAUUUUGAUUUUGCAUUGUUUUGC,1.05
CACACACACACACACCCCUGCUCAACAGAGGUUUAGUUUACAGUCUCUGAACUAAAGUAGUAACCUCCCAAAUUGUUUUUUCUAAUAAGCUGAGAUUCCCAUUUCUCUUA,0.602
CUUGACAAAGUCCCAAGUGCUCAGGACUUUUAGCCCUGUCUACUUUGGCUUGGUUUGGAUGAUUCUUAAGUUUAUUAGCCUAGUGAUGGCCAAAAAGUACUUGACUUAAG,0.262
GCUGGGCUGGGCUUUGCCUUUCAGCAUUCUGUCUGUCUCACUGGUCAUGCAUUGUUCCAUAGUCGCCCUCAUGGGGUCAUUUCAUGCCUCCAGGCGGGGCCCGGAAGUAG,0.379
CUGUUCUCCUCCCCAAGUCGGCACCCUUUAACUCAUGAGGAGGGAAAAGAGUGCCUAAGCGGGGGUGAAAGAGGACGUGUUACCCACUGCCAUGCACCAGGACUGGCUGU,0.37
AAAUGAUGACCCACUCUGGGUAUAAGCUUGAUUUCCUUUGUUGAGACUUACCCUUCAUUGAAGAGAAAAAGAAGACAGUCAAAAAAGGUCCAGGUUACAAAGUUCUCCUC,0.296
GAGUAACUGAAGCACAUUGGAAAGAUUCUCAAUUUUGUGUUUCCUGUAAAAACAGUGCUCUCUGCUGCUAGGACCUUUUUUCUGCUUCCUGUCAUUUUCAUGUGGCUUGA,0.376
CUGUGAGUUGGGAAUUCCUGCGUGGCGACUUUCUCUGAGGCCCACAGAGAAUCAGGUAACAUUGCACAGCCUGCGUUCUCCUGCAGUGGUGGCACGCCUUGUGCUGACGA,0.477
